Results of several laboratories.
Compare with care: the assays were run in different laboratories.
Target: Histone deacetylase 8 (HDAC8, Homo sapiens, UniProt Q9BY41)
Action: inhibitor
Residues used in one study (Q9BY41 1-377): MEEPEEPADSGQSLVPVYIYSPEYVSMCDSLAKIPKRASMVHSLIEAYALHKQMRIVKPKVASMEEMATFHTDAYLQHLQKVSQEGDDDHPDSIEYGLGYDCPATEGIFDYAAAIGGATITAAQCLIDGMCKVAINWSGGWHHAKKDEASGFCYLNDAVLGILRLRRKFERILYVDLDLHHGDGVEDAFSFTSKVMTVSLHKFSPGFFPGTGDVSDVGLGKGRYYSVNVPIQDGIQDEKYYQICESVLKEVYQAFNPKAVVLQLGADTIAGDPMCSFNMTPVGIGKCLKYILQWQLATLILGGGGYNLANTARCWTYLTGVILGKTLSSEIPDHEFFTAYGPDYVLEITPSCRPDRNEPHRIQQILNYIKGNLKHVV

CC[C@H](C)[C@@H]1NC(=O)[C@H](Cc2ccccc2C(F)(F)F)NC(=O)CCSCc2cccc(n2)CSCCCNC(=O)[C@H](CCCCCC(=O)NO)NC1=O
Ki (enzyme activity, fluorescence): 100 nM

O=C(NO)c1cnc(NC2(c3cccc(F)c3)CCCCC2)nc1
Kd (competition pulldown; SW620 and MV4-11 lysate; 1 h): > 30200 nM

Cc1c(COc2cc(OCc3cccc(C#N)c3)c(CN3CCCC[C@H]3C(=O)O)cc2Cl)cccc1-c1cccc(OCCCCCCC(=O)NO)c1
IC50 (enzyme activity): > 1000 nM

COc1ccc(C(=O)NO)cc1NC(=O)c1ccc(-c2ccccc2)cc1
Kd (competition pulldown; SW620 and MV4-11 lysate; 1 h): > 30200 nM

O=C(NO)c1cncc(OS(=O)(=O)Oc2ccc(Oc3ccccc3)cc2)c1
Ki (enzyme activity, fluorescence): 1230 nM

Cc1c(COc2cc(OCc3cccc(C#N)c3)c(CN3CCCC[C@@H]3C(=O)O)cc2Cl)cccc1-c1cccc(OCCCCCC(=O)NO)c1
IC50 (enzyme activity): > 1000 nM

Cc1cc(C(C)(C)C)ccc1OS(=O)(=O)Oc1cccc(/C=C/C(=O)NO)c1
Ki (enzyme activity, fluorescence): 4330 nM

O=C(CCc1ccc(CNC(C(=O)O)C2CCCCC2)cn1)NO (stereo not shown)
IC50 (enzyme activity): 6760 nM

CC(C)c1ccc(OS(=O)(=O)Oc2cncc(C(=O)NO)c2)cc1
Ki (enzyme activity, fluorescence): 586 nM

Cc1c(COc2cc(OCc3cccc(C#N)c3)c(CNC(C)(CO)CO)cc2Cl)cccc1-c1cccc(OCCCCCCC(=O)NO)c1
IC50 (enzyme activity): > 1000 nM

For quick reference, copied from above:
Cc1c(COc2cc(OCc3cccc(C#N)c3)c(CNC(C)(CO)CO)cc2Cl)cccc1-c1cccc(OCCCCCCC(=O)NO)c1
IC50 (enzyme activity): > 1000 nM
